Assay results from different studies.
Compare with care: the assays were run in different laboratories. Numbers after ± are the reported error. In brackets after ≈: the same amount, converted by molar mass.
Organism: Trypanosoma brucei

SMILES | assay | system | conditions | measurement | value
CCn1nc(-c2cccs2)nc2c(=O)n(C)c(=O)nc1-2 | parasite growth, resazurin |  | 73 h | EC50 | 1.43 µM
CC(C)=CCC/C(C)=C/CNCCOC1C2CC3CC(C2)CC1C3 (centres unmarked) |  | bloodstream form | 72 h | IC50 | 0.26 ± 0.07 µg/mL (≈ 0.784 µM)
O=C(Cc1ccc(Cl)c(Cl)c1)NCCN1CCCC1 | parasite growth |  | 72 h | EC50 | 16.3 µM
OC[C@H]1O[C@@H](O[C@H]2[C@H](O)[C@@H](O)[C@H](SSCc3ccc(CSS[C@@H]4O[C@H](CO)[C@@H](O[C@@H]5O[C@H](CO)[C@H](O)[C@H](O)[C@H]5O)[C@H](O)[C@H]4O)cc3)O[C@@H]2CO)[C@H](O)[C@@H](O)[C@H]1O | parasite growth, flow cytometry |  | 5 µM, 24 h | viability | 93.4%
CC(C)=CCNCCOC1C2CC3CC(C2)CC1C3 (centres unmarked) |  | bloodstream form | 72 h | IC50 | 1.5 ± 0.1 µg/mL (≈ 5.69 µM)
CC(C)(C)N(C(=O)Cc1ccc(Cl)c(Cl)c1)[C@@H]1CCCC[C@H]1N1CCCC1 | parasite growth |  |  | EC50 | 11 µM
OC[C@H]1O[C@@H]([Se][Se][C@@H]2O[C@H](CO)[C@@H](O)[C@H](O)[C@H]2O)[C@H](O)[C@@H](O)[C@@H]1O | parasite growth, flow cytometry |  | 5 µM, 24 h | viability | 57.1%
O=S(=O)(NCc1csc(-c2ccccc2)n1)c1ccc2ccccc2c1 | parasite growth |  |  | EC50 | 19 µM
OC[C@H]1O[C@@H](SSCc2cccc3c(CSS[C@@H]4O[C@H](CO)[C@H](O)[C@H](O)[C@H]4O)cccc23)[C@H](O)[C@@H](O)[C@H]1O | parasite growth, flow cytometry |  | 5 µM, 24 h | viability | 91.9%
CN(C(=O)Cc1ccc(Cl)c(Cl)c1)C(CN1CCCC1)c1ccccc1 (stereo in doubt) | parasite growth |  | 72 h | EC50 | 0.88 µM
CC(C)(C)c1ccc(C(=O)Nc2cc(Cl)c(Br)cc2C(=O)O)cc1 | cell growth | bloodstream form | 10 µM | inhibition | 6.9 ± 3%
O=c1c2ccccc2[se]n1-c1ccccc1 | cell viability, flow cytometry, PI | bloodstream form | 24 h | EC50 | 9 µM
CN1CCN([C@@H]2CCCC[C@H]2N(C)C(=O)Cc2ccc(Cl)c(Cl)c2)CC1 | parasite growth |  |  | EC50 | 3.3 µM
CC(=O)N[C@@H]1[C@@H](OC(C)=O)[C@H](OC(C)=O)[C@@H](COC(C)=O)O[C@H]1[Se][Se][C@@H]1O[C@H](COC(C)=O)[C@@H](OC(C)=O)[C@H](OC(C)=O)[C@H]1NC(C)=O | parasite growth, flow cytometry |  | 5 µM, 24 h | viability | 63.3%
